Assay results pooled from the literature.
Values joined by “and” are separate records of one study, mostly repeats; a detail may differ. Converted amounts (≈) assume the structure as drawn.

SMILES | organism | assay | system | setting | scale | quantity | value
CCc1nc2cc(Br)ccn2c1C(=O)NCc1ccc2oc(-c3ccc(Cl)cc3)nc2c1 | Mycobacteroides abscessus | RFP fluorescence | ATCC 19977, RFP reporter | – | – | MIC90 | > 25 µM
OC(Cn1cncn1)(Cn1cc(-[c-]2cccc2)nn1)c1ccc(F)cc1F.[Cl-].[Co+3].c1cc[cH-]c1 (racemic) | Trichuris muris | Worminator | adult males and females | 100 µM, day 0 | – | motility inhibition | 37%
Cc1ccc(-c2nc(N)c3c(Nc4ccccc4)n[nH]c3n2)cc1 | Human rhinovirus 8 | cytopathic effect, inhibitor | HeLa | – | – | IC50 | 2.78 µM
Cc1nc2cc(OC(F)(F)F)ccn2c1C(=O)NCc1ccc2oc(-c3ccc(OC(F)(F)F)cc3)nc2c1 | Mycobacteroides abscessus | RFP fluorescence | ATCC 19977, RFP reporter | – | – | MIC90 | > 100 µM
CC(=O)OC[C@H]1O[C@@H](Sc2sc(C(=O)c3ccc(Cl)cc3)c(N)c2-c2nc3ccccc3s2)[C@H](OC(C)=O)[C@@H](OC(C)=O)[C@H]1OC(C)=O | human alphaherpesvirus 1 | plaque reduction | – | non-toxic concentration | – | viral titre reduction | 10%
Cc1cccc2c1N(C(=O)n1ccnn1)CC2 | Arabidopsis thaliana | – | kai2 mutant, seeds | 1 µM | – | germination rate | 21.7% and 30% and 34.8% and 25.8% and 16.3% and 16%
Nc1nc(-c2ccccc2)nc2[nH]nc(Nc3cc(F)c(F)c(F)c3)c12 | Human rhinovirus 8 | cytopathic effect, inhibitor | HeLa | – | – | IC50 | 5.05 µM
Cc1nc2ccc(C(F)(F)F)cn2c1C(=O)NCc1ccc2oc(-c3ccc(Cl)cc3)nc2c1 | Mycobacteroides abscessus | RFP fluorescence | ATCC 19977, RFP reporter | – | – | MIC90 | > 100 µM
Nc1nc(-c2ccccc2)nc2[nH]nc(Nc3ccccc3C(F)(F)F)c12 | Human rhinovirus 8 | cytopathic effect, inhibitor | HeLa | – | – | IC50 | 25.1 µM
C=C[C@]1(C)C[C@@H](OC(=O)CSc2ccc(NC(=O)c3ccco3)cc2)[C@]2(C)[C@H](C)CC[C@]3(CCC(=O)[C@H]32)[C@@H](C)[C@@H]1O | Mycoplasma gallisepticum | – | infected chickens, lung | intramuscular, 70 mg/kg daily x3, 72 h | relative to: 0 h | lung mycoplasma load reduction | 3.35 log10 CFU/mL and 2.9 log10 CFU/mL and 4.13 log10 CFU/mL and 3.13 log10 CFU/mL and 3.74 log10 CFU/mL and 3.59 log10 CFU/mL and 3.12 log10 CFU/mL
N#Cc1ccc(Nc2n[nH]c3nc(-c4ccccc4)nc(N)c23)cc1 | Human rhinovirus 8 | cytopathic effect, inhibitor | HeLa | – | – | IC50 | 76.4 µM
[2H]C([2H])([2H])C1(C([2H])([2H])[2H])NC(=O)N(c2ccc(F)c(C(C)(F)F)c2)C1=O | Schistosoma haematobium | – | adult, hamster | oral, single dose | – | ED50 | 8.5 mg/kg
CC(C)(C)NCC(SS(=O)(=O)O)c1ccccc1 (stereo not shown) | Schistosoma mansoni | perfusion day 52 | infected Swiss Webster mice | 400 mg/kg single dose, dosed day 7 post-infection | – | liver weight | 3.4 g and 4.66 g and 5 g and 2.98 g and 4.9 g
Cc1nc2cc(Br)ccn2c1C(=O)NCc1ccc2oc(-c3ccc(OC(F)(F)F)cc3)nc2c1 | Mycobacteroides abscessus | RFP fluorescence | ATCC 19977, RFP reporter | – | – | MIC90 | > 25 µM
Nc1nc(-c2ccncc2)nc2[nH]nc(Nc3ccc(F)cc3)c12 | Human rhinovirus 8 | cytopathic effect, inhibitor | HeLa | – | – | IC50 | 33.9 µM
C=C(NC(=O)c1csc(-c2nc3c(cc2O)-c2nc(cs2)C(=O)NC(C(C)O)C(=O)NC(=C(C)OC)c2nc(cs2)C(=O)NC2c4nc(cs4)C(=O)NC(COC(=O)c4c5c6c(cccc6n4O)COC(=O)C(OC4CC(C)(O)C(N(C)C)C(C)O4)C2OC5)c2nc-3cs2)n1)C(N)=O (stereo not shown) | Enterococcus faecium | – | -30 vancomycin-intermediate, mice, systemic infection | intravenous, 2 and 8 h post-infection, survival over 7 days | – | ED50 | 1.35 mg/kg

SMILES | organism | assay | system | setting | scale | quantity | value
FC(F)(F)c1cccc(CNc2nc(NC3CCN(Cc4ccccc4)CC3)c3nc[nH]c3n2)c1 | Cryptococcus neoformans | RNA-seq, item: YMR1 (CNAG_00390) mRNA | – | 48 µg/mL, 3 h | relative to: untreated wild type | log2 fold change | -0.623
CC(=O)O[C@@H]1[C@@H](OC(C)=O)[C@H](Sc2sc(C(=O)c3ccc(C)cc3)c(N)c2-c2nc3ccccc3s2)OC[C@H]1OC(C)=O | human alphaherpesvirus 1 | plaque reduction | – | non-toxic concentration | – | viral titre reduction | 10%
Nc1nc(-c2ccccc2)nc2[nH]nc(Nc3ccc([N+](=O)[O-])cc3)c12 | Human rhinovirus 8 | cytopathic effect, inhibitor | HeLa | – | – | IC50 | 5.47 µM
CN(Cc1ccc(C2(C(F)(F)F)CCC2)cc1)Cc1cccc2ccccc12 | Trichophyton rubrum | microbial growth, disc diffusion | ATCC28188 | 0.001 µg/mL, 6 days | – | inhibition zone | 0 mm
CC(=O)OC[C@H]1O[C@@H](Sc2sc(C(=O)c3ccc(Br)cc3)c(N)c2-c2nc3ccccc3s2)[C@H](OC(C)=O)[C@@H](OC(C)=O)[C@@H]1OC(C)=O | human alphaherpesvirus 1 | plaque reduction | – | non-toxic concentration | – | viral titre reduction | 80%
CCc1nc2ccc(Cl)cn2c1C(=O)NC/C=C(\C)CC/C=C(\C)CCC=C(C)C | Mycobacteroides abscessus | RFP fluorescence | ATCC 19977, RFP reporter | – | – | MIC90 | > 100 µM
COC1C=COC2(C)Oc3c(C)c(O)c4c(c3C2=O)C2=NC3(CCN(CC(C)C)CC3)NC2=C(NC(=O)C(C)=CC=CC(C)C(O)C(C)C(O)C(C)C(OC(=O)Nc2cnccn2)C1C)C4=O (stereo not shown) | Mycobacteroides abscessus | bacterial growth | subsp. abscessus K21 clinical isolate | – | – | IC90 | 214 nM
Cc1nc2ccc(Br)cn2c1C(=O)NCc1ccc2oc(-c3ccc(Cl)cc3)nc2c1 | Mycobacteroides abscessus | RFP fluorescence | ATCC 19977, RFP reporter | – | – | MIC90 | > 50 µM
O=[N+]([O-])c1cc(Br)cc([N+](=O)[O-])c1NS(=O)(=O)c1ccc(Br)cc1 | Arabidopsis thaliana wild type | – | – | 50 µM | – | germination rate | ~30%
Cc1nc2ccc(OC(F)(F)F)cn2c1C(=O)NCc1ccc2oc(-c3ccc(OC(F)(F)F)cc3)nc2c1 | Mycobacteroides abscessus | RFP fluorescence | ATCC 19977, RFP reporter | – | – | MIC90 | > 50 µM
Nc1nc(-c2cccc(C(F)(F)F)c2)nc2[nH]nc(Nc3ccccc3)c12 | Human rhinovirus 8 | cytopathic effect, inhibitor | HeLa | – | – | IC50 | 4.32 µM
CC1CC2(N=CCS2)C2(O)OC3CC4(C)C(CC3OC2O1)CC1OC12C4C(O)C(=O)C1(C)C(C3=CC(=O)OC3)CCC12O (stereo not shown) | Oncopeltus fasciatus | – | – | diet, concentration not given | – | time to adulthood | 24.1 days
Nc1nc(-c2ccccc2)nc2[nH]nc(Nc3ccc(Cl)cc3)c12 | Human rhinovirus 8 | cytopathic effect, inhibitor | HeLa | – | – | IC50 | 3.27 µM
CCCOC(=O)N1c2cc(CNC)ccc2[C@H](NC(=O)C(=O)Nc2ccc(Cl)c(F)c2)[C@H]1CNC(=N)N | HIV-1 | pseudovirus infection, Env pseudovirus neutralisation | TZM-bl, clade B transmitted/founder | – | – | IC80 | 207 nM
Cc1c(CN(C)C(=O)/C=C/c2cnc3c(c2)CC(N)C(=O)N3)oc2ccccc12 (stereo not shown) | Klebsiella pneumoniae | broth microdilution | AR-0113 | – | – | MIC | 32 µg/mL (≈ 82 µM)
